Assay results gathered from unrelated publications.
Lines come from different studies, so protocols differ. “And” joins repeats or separate records; there may be more than shown. Numbers after ± are the reported error.

With CN1CCC[C@]1(C)/C=C/S(=O)(=O)NC(=O)Nc1c2c(cc3c1CCC3)CCC2 the IL-1β inhibition was 98.7% (human, whole blood ex vivo; 25 mg single dose, 3 h, single ascending dose, with: LPS and ATP).
For COc1cc2nc(N3CCN(C(=O)C4CCC5(CCOCC5)O4)CC3)nc(N)c2cc1OC (centres unmarked), “time to maximum BP lowering” read 120 min (blood pressure; spontaneously hypertensive rat, male; oral, 3 mg/kg).
Under “log2 fold change”, COC1CN([C@H]2CC[C@H]([C@@]3(C)Oc4c(Cl)cc(C(=O)NCc5c(SC)cc(C)[nH]c5=O)c(C)c4O3)CC2)C1 is recorded as 1.3 (RNA-seq, item: GPCPD1; human, whole blood; dose not given, 24 h; reference: pretreatment baseline).
The inhibition of Cc1cccc(C)c1CNc1cc(C(=O)N2CCC2)cn2c(C)c(C)nc12 is reported as 100% (histamine-stimulated acid secretion; dog, Heidenhain pouch; oral, 3 mg/kg, 3 h, 9 h after dosing).
COc1ccccc1-c1ccncc1C(=O)Nc1nnc(OCc2ccc(Cl)cc2)s1 has a colony survival of 46.6% (Brca1 Δ11/Δ11 MEF sgGFP, Mus musculus; 10 µM, mean of runs 2, 3; reference: 0 µM).
The tumour volume of COc1ccc(NC(=O)c2ccc3[nH]c(-c4ccc(N(C)C)cc4)nc3c2)cn1 is reported as 176 mm3 and 221 mm3 and 190 mm3 and 405 mm3 and 319 mm3 (CT26, BALB/c nude mice, subcutaneous graft; dose not given, day 4).
The radical scavenging of NC(=O)Cc1ccc(O)c(Cc2ccc(O)cc2)c1 is reported as 88.94 ± 0.72% (ABTS radical; 300 µg/mL).
CC[C@H](C)[C@@H](C(=O)N[C@@H](CC(C)C)C(=O)N[C@@H](CO)C(=O)N[C@@H](CO)C(=O)N[C@H](C(=O)N[C@@H](CCC(=O)O)C(=O)N[C@H](C(=O)NCC(=O)N[C@@H](CO)C(=O)NCC(=O)N[C@H](C(=O)N1C[C@H](O)C[C@H]1C(N)=O)[C@@H](C)O)C(C)C)[C@@H](C)O)N(C)C(=O)[C@H](C)NC(=O)CN(C)C(=O)[C@H](Cc1ccccc1)NC(=O)[C@H](CO)NC(=O)[C@H](CO)NC(=O)[C@H](CCCNC(=N)N)NC(=O)[C@@H](NC(=O)[C@H](CC(C)C)NC(=O)[C@H](Cc1ccccc1)NC(=O)[C@H](Cc1c[nH]cn1)NC(=O)[C@H](C)NC(=O)[C@H](CC(C)C)NC(=O)[C@H](CCCNC(=N)N)NC(=O)[C@H](CCC(=O)O)NC(=O)[C@@H](NC(=O)[C@H](C)NC(=O)[C@@H]1CSSC[C@H](NC(=O)[C@H](CCCNC(=N)N)NC(=O)CC[C@H](NC(=O)CCCCCCCCCCCCCCCCCCC(=O)O)C(=O)O)C(=O)NCC(=O)N[C@@H]([C@@H](C)O)C(=O)N[C@@H](C)C(=O)N[C@@H]([C@@H](C)O)C(=O)N1)[C@@H](C)O)[C@@H](C)O: “body weight loss” 6.4 ± 0.5% (male Sprague-Dawley rats; subcutaneous, 30 nmol/kg single dose, 96 h).
Under “log2 fold change”, Cc1ncsc1-c1ccc(C(C)NC(=O)C2CC(O)CN2C(=O)C(NC(=O)CCCCCCCCCCN2CCCC(Nc3ncc(Cl)c(Nc4ccccc4S(=O)(=O)C(C)C)n3)C2)C(C)(C)C)cc1 (centres unmarked) is recorded as -1.48 (22Rv1; RNA-seq, item: MAST3 mRNA; concentration not given; reference: DMSO).
Cc1cccc(NC(=O)CCN2CCN(C/C=C/c3ccccc3)CC2)c1 — result for “third-quartile larval motion”: 0.8 ± 0.4 pixels/frame (locomotor activity in dark; Danio rerio larvae, 7 dpf, well of 10 larvae; 10 µM, minute 1, dark).
Under Ki-67 level, C=CC(=O)N1CC2C(=O)N(CCN(C)C)c3c(c4cc(Cl)c(-c5c(O)cccc5F)nc4n(-c4c(C)ccnc4C(C)C)c3=O)N2CC1C (centres unmarked) is recorded as “decreased” (immunohistochemistry; BALB/c nude mouse, H23-Luc intracranial tumour, brain tissue; 100 mg/kg, 21 days).
COc1ccc(C(=O)CCc2cc(C(CCc3ccc(O)cc3OC)c3ccc(O)cc3)c(O)cc2OC)cc1 (racemic) has an amount of 220 ± 77 pg/mL blood (item: 12-HEPE; human whole blood; 0.3 µM, with: A23187).
Under “observed rate constant kobs”, O=C(NCC1OC2CCC=CCCC2O1)c1ccc(F)nc1 (centres unmarked) is recorded as 10.76 ± 0.0249 s⁻¹ (IEDDA cycloaddition, substrate, stopped-flow spectrophotometry; water/methanol 45:55; 1 mM, 298 K, with: methyltetrazine-NHS 0.05 mM).
NC[C@@H](C(=O)Nc1ccc(-c2cn[nH]c2)cc1)c1ccccc1 has an IOP of 31.8 mmHg (tonometry; NZW rabbit, magnetic bead-induced ocular hypertension; ocular, 0.03%, 28 h).
For COC(=O)C1CN1S(=O)(=O)c1ccc2cc(C)ccc2c1 (centres unmarked), the tumour volume was 600 mm3 (mouse, Lewis lung carcinoma; ip, 100 mg/kg, 288 h).
With NNC(=O)Cc1ccccc1 the normalised absorbance was 0.448 (hydrazine ligation kinetics, absorbance; concentration not given, 15 s, with: 2-formylphenylboronic acid).
CC[C@H](C)[C@@H](C(=O)N[C@@H](CC(C)C)C(=O)N[C@@H](CO)C(=O)N[C@@H](CO)C(=O)N[C@H](C(=O)N[C@@H](CCC(=O)O)C(=O)N[C@H](C(=O)NCC(=O)N[C@@H](CO)C(=O)N[C@@H](CC(N)=O)C(=O)N[C@H](C(=O)N1C[C@H](O)C[C@H]1C(N)=O)[C@@H](C)O)C(C)C)[C@@H](C)O)N(C)C(=O)[C@H](C)NC(=O)CN(C)C(=O)[C@H](Cc1ccccc1)NC(=O)[C@H](CO)NC(=O)[C@H](CO)NC(=O)[C@H](CCCNC(=N)N)NC(=O)[C@H](CCC(N)=O)NC(=O)[C@H](CC(C)C)NC(=O)[C@H](Cc1ccccc1)NC(=O)[C@H](CCCC(=O)O)NC(=O)[C@H](C)NC(=O)[C@H](CC(C)C)NC(=O)[C@H](CCCNC(=N)N)NC(=O)[C@H](CCC(=O)O)NC(=O)[C@@H](NC(=O)[C@H](C)NC(=O)[C@@H]1CCCCNC(=O)C[C@H](NC(=O)[C@H](CCCNC(=N)N)NC(=O)CC[C@H](NC(=O)CCCCCCCCCCCCCCCCCCC(=O)O)C(=O)O)C(=O)NCC(=O)N[C@@H]([C@@H](C)O)C(=O)N[C@@H](C)C(=O)N[C@@H]([C@@H](C)O)C(=O)N1)[C@@H](C)O: “body weight change” 3.8% (diet-induced obese rats; subcutaneous, 10 nmol/kg every other day, day 20; reference: day 0).
CC(C)C[C@H](NC(=O)[C@H](Cc1ccccc1)NC(=O)[C@H](C)NC(=O)[C@@H](CS)NC(=O)CNC(=O)[C@H](N)CO)C(=O)N[C@@H](CO)C(=O)N[C@H](C(=O)N[C@@H](CCCCN)C(=O)N[C@@H](CCCCN)C(=O)N[C@@H](CCC(N)=O)C(=O)N[C@@H](Cc1ccccc1)C(=O)N[C@@H](CCC(=O)O)C(=O)N[C@@H](CCC(=O)O)C(=O)N[C@@H](CC(C)C)C(=O)N[C@H](C(=O)N[C@@H](CC(C)C)C(=O)NCC(=O)N[C@@H](CCC(=O)O)C(=O)N[C@@H](Cc1ccccc1)C(=O)N[C@@H](CC(C)C)C(=O)N[C@H](CCCCN)C(=O)N[C@H](CC(C)C)C(=O)N[C@H](CC(=O)O)C(=O)N[C@@H](CCCNC(=N)N)C(=O)N[C@H](CCCNC(=N)N)C(=O)N[C@@H](CCCNC(=N)N)C(=O)N[C@@H](CCCCN)C(=O)O)[C@@H](C)O)C(C)C: ABCG2 level “decreased” (immunofluorescence; mouse A549 xenograft, tumour; intratumoral and intravenous, dose not given).
COc1cccc(OCC(O)CN2CCN(c3ccccc3OC)CC2)c1 (centres unmarked) — result for “third-quartile larval motion”: 9.8 ± 1.4 pixels/frame (locomotor activity in dark; Danio rerio larvae, 7 dpf, well of 10 larvae; 10 µM, minute 1, dark).
Cc1ccc(S(=O)(=O)NN)cc1 has a normalised absorbance of 0.853 (hydrazine ligation kinetics, absorbance; concentration not given, 35 s, with: 2-formylphenylboronic acid).
The IC50 of CCOC(=O)C1=C(CSC2=NCCS2)NC(=O)NC1c1ccc(C)cc1 (centres unmarked) is reported as 164 µM (DPPH scavenging).
With C[C@@H]1O[C@@H](OC[C@H]2O[C@@H](Oc3c(-c4ccc(O)cc4)oc4cc(O)cc(O)c4c3=O)[C@H](O[C@@H]3O[C@@H](C)[C@H](O)[C@@H](O)[C@H]3O)[C@@H](O)[C@@H]2O)[C@H](O)[C@H](O)[C@H]1O the lipid accumulation was 61.3 ± 8.5% (Oil Red O; 3T3-L1, mouse; 5 µM, day 8; reference: vehicle).
Under “third-quartile larval motion”, OC(COCC1COc2ccccc2O1)CN1CCN(c2ccccc2)CC1 (centres unmarked) is recorded as 4 ± 0.8 pixels/frame (locomotor activity in dark; Danio rerio larvae, 7 dpf, well of 10 larvae; 10 µM, minute 1, dark).
Oc1cc2c(cc1O)C(c1ccco1)NCC2 (centres unmarked) gave an IC50 of 15.2 µM (DPPH scavenging, absorbance; 30 min, dark).
Cc1ccc(NC(=O)CCN2CCCCCC2)cc1C: “third-quartile larval motion” 0.7 ± 0.7 pixels/frame (locomotor activity in dark; Danio rerio larvae, 7 dpf, well of 10 larvae; 10 µM, minute 5, dark).
O=Cc1ccc(CO)n1Cc1ccc(O)cc1 has a radical scavenging of 44.9 ± 1.35% (DPPH radical; 300 µg/mL).

For quick reference, copied from above:
Cc1cccc(NC(=O)CCN2CCN(C/C=C/c3ccccc3)CC2)c1 — result for “third-quartile larval motion”: 0.8 ± 0.4 pixels/frame (locomotor activity in dark; Danio rerio larvae, 7 dpf, well of 10 larvae; 10 µM, minute 1, dark).
Under Ki-67 level, C=CC(=O)N1CC2C(=O)N(CCN(C)C)c3c(c4cc(Cl)c(-c5c(O)cccc5F)nc4n(-c4c(C)ccnc4C(C)C)c3=O)N2CC1C (centres unmarked) is recorded as “decreased” (immunohistochemistry; BALB/c nude mouse, H23-Luc intracranial tumour, brain tissue; 100 mg/kg, 21 days).
COc1ccc(C(=O)CCc2cc(C(CCc3ccc(O)cc3OC)c3ccc(O)cc3)c(O)cc2OC)cc1 (racemic) has an amount of 220 ± 77 pg/mL blood (item: 12-HEPE; human whole blood; 0.3 µM, with: A23187).
